Published values of several laboratories.
Protocols differ between the studies behind these lines. Converted amounts (≈) assume the structure as drawn.
Organism: Candida albicans

CN1CC(=O)N=C1N.C[C@H](CCC(=O)O)[C@H]1CC[C@H]2[C@@H]3[C@H](O)C[C@@H]4C[C@H](O)CC[C@]4(C)[C@H]3CC[C@]12C
inhibition zone (TISTR 5554; 1 mg per disc, 18 to 24 h, 37 °C, 6 mm disc): inactive

CC(=O)OC1C(C)C(OC2CC3OCOC3C(C)O2)C=COC2(C)Oc3c(C)c(O)c4c(c3C2=O)C(=O)C=C(NC(=O)C(C)=CC=CC(C(C)OC(=O)C(C)(C)CC(=O)O)C(O)C(C)C(O)C1C)C4=O (stereo not drawn)
antifungal activity (ATCC 90028; concentration not given): inactive

CC(CCC(=O)[O-])C1CCC2C3CCC4CC(O)CCC4(C)C3CCC12C.C[N+](C)(C)CC(O)CC(=O)O (stereo not drawn)
inhibition zone (TISTR 5554; 1 mg per disc, 18 to 24 h, 37 °C, 6 mm disc): inactive

CCCCCCCCCCCC(=O)C(C)C(=O)N1CCC[C@H]1C(=O)NC(C)(C)C(=O)NC(C)(C)C(=O)NC(C)(C)C(=O)N[C@](C)(CC)C(=O)NCCC(=O)N[C@@H](C)C(=O)N[C@](C)(CC)C(=O)N[C@@H](C)C(=O)N[C@@H](CC(C)C)C(=O)N[C@](C)(CC)C(=O)NCCC(=O)N[C@@H](C)C(=O)N[C@](C)(CC)C(=O)NCCC(=O)N[C@@H](C)C(=O)NC(C)(C)C(=O)NC(C)(C)C(=O)NC(C)(C)C(=O)N[C@@H](C)C(=O)N[C@@H](CC(=O)O)C(=O)O (stereo partly drawn)
cell surface β-1,3-glucan (aniline blue staining; ATCC 90028; 1 µg/mL (½ MIC), 6 h): decreased

CC(C)C[C@@H](NC(=O)[C@H](C)NC(=O)CNC(=O)[C@@H](NC=O)C(C)C)C(=O)N[C@@H](C)C(=O)N[C@@H](C(=O)N[C@H](C(=O)N[C@@H](C(=O)N[C@@H](Cc1c[nH]c2ccccc12)C(=O)N[C@H](CC(C)C)C(=O)N[C@@H](Cc1c[nH]c2ccccc12)C(=O)N[C@H](CC(C)C)C(=O)N[C@@H](Cc1c[nH]c2ccccc12)C(=O)N[C@H](CC(C)C)C(=O)N[C@@H](Cc1c[nH]c2ccccc12)C(=O)NCCO)C(C)C)C(C)C)C(C)C
inhibition (concentration not given): ≤ 10%

CC[C@@H](C)[C@@H](NC(=O)[C@@H](C)NC(=O)[C@@H](CCCCN)NC(=O)[C@@H](CC(C)C)NC(=O)[C@@H](C)NC(=O)[C@H](NC(=O)[C@@H](Cc1c[nH]cn1)NC(=O)[C@@H](CC(C)C)NC(=O)[C@H](NC(=O)[C@H](NC(=O)[C@@H](CCCCN)NC(=O)[C@@H](CCCCN)NC(=O)[C@@H](C)NC(=O)[C@@H](CO)NC(=O)[C@@H](CCCCN)NC(=O)[C@@H](Cc1ccccc1)NC(=O)[C@H](NC(=O)[C@@H](CCCCN)NC(=O)[C@@H](CC(C)C)NC(=O)[C@@H](Cc1ccccc1)NC(=O)[C@@H](CO)NC(=O)[C@@H](CCCCN)NC(=O)[C@@H](Cc1c[nH]c2ccccc12)NC(=O)[C@@H](CCCCN)NC(C)=O)[C@H](C)O)[C@H](C)O)C(C)C)[C@H](C)O)C(=O)N[C@H](CO)C(=O)N[C@H](CO)C(N)=O
MIC90 (ATCC 24433; 48 h, 30 °C): 50 µg/mL (≈ 16.7 µM)

CC[C@H](C)[C@H](NC(=O)CNC(=O)[C@H](CC(N)=O)NC(=O)[C@H](CCCNC(=N)N)NC(=O)[C@H](CS)NC(=O)[C@H](CCCNC(=N)N)NC(=O)CNC(=O)CNC(=O)[C@H](CCCCN)NC(=O)[C@H](Cc1ccc(O)cc1)NC(=O)[C@H](CCCNC(=N)N)NC(=O)[C@H](CCCCN)NC(=O)[C@@H](NC(=O)[C@H](CC(C)C)NC(=O)[C@H](CS)NC(=O)[C@H](Cc1c[nH]cn1)NC(=O)[C@H](C)NC(=O)[C@H](C)NC(=O)[C@H](CS)NC(=O)[C@H](C)NC(=O)[C@H](CO)NC(=O)[C@H](Cc1c[nH]cn1)NC(=O)[C@H](CC(N)=O)NC(=O)[C@H](CC(C)C)NC(=O)[C@H](CO)NC(=O)CNC(=O)[C@H](Cc1c[nH]c2ccccc12)NC(=O)[C@@H]1CCCN1C(=O)[C@@H](NC(=O)[C@H](CO)NC(=O)[C@H](C)NC(=O)[C@H](CO)NC(=O)[C@H](CC(C)C)NC(=O)[C@H](CC(C)C)NC(=O)[C@H](CC(=O)O)NC(=O)[C@H](CS)NC(=O)[C@@H](NC(=O)[C@H](C)N)[C@@H](C)O)[C@@H](C)O)[C@@H](C)O)C(=O)N[C@@H](CS)C(=O)N[C@@H](CCCNC(=N)N)C(=O)N[C@@H](CS)C(=O)N[C@@H](CCCNC(=N)N)C(=O)N[C@@H](CCCNC(=N)N)C(N)=O
antifungal concentration (ATCC 90028): > 19 µg/mL

O=[N+]([O-])[O-].S=c1[nH]cnc2[nH]cnc12.[Ag+].c1ccc(P(c2ccccc2)c2ccccc2)cc1.c1ccc(P(c2ccccc2)c2ccccc2)cc1
inhibition zone diameter (MTCC 227, DMSO; 0.1 mL of 50 mg/mL in 8 mm well, 18 to 24 h): 18 mm

CC(=NNC(=N)N)c1nnn(-c2ccc(C#CC3(O)CCCCC3)cc2)c1C
selectivity index (WI-38, SC5314 wild type; reference: WI-38 IC50 over MIC): 17.6

CN1CC(=O)N=C1N.C[C@H](CCC(=O)O)[C@H]1CC[C@H]2[C@@H]3CC[C@@H]4C[C@H](O)CC[C@]4(C)[C@H]3CC[C@]12C
inhibition zone (TISTR 5554; 1 mg per disc, 18 to 24 h, 37 °C, 6 mm disc): inactive

C[C@@H](O)[C@H](NC(=O)[C@H](CCC(=O)O)NC(=O)[C@H](Cc1ccccc1)NC(=O)[C@H](Cc1c[nH]c2ccccc12)NC(=O)[C@H](CCCCN)NC(=O)[C@H](CCCCN)NC(=O)[C@H](CCCCN)NC(=S)Nc1ccc2c(c1)C(=O)OC21c2ccc(O)cc2Oc2cc(O)ccc21)C(=O)N[C@@H](Cc1c[nH]c2ccccc12)C(=O)N[C@@H](Cc1ccccc1)C(=O)N[C@H](C(=O)N[C@@H](CCC(=O)O)C(=O)N[C@@H](Cc1c[nH]c2ccccc12)C(=O)N1CCC[C@H]1C(=O)N[C@@H](CCCCN)C(=O)N[C@@H](CCCCN)C(=O)N[C@@H](CCCCN)C(=O)N[C@@H](CCCCN)C(=O)O)[C@@H](C)O
duration of growth inhibition (10-fold MIC, 25 °C): 4 h

COc1ccc(N2C(=O)C=CC2=O)cc1
mRNA level (qRT-PCR, item: ALS3; 1 µg/mL, 12 h): decreased

Excerpt of the above:
CC[C@H](C)[C@H](NC(=O)CNC(=O)[C@H](CC(N)=O)NC(=O)[C@H](CCCNC(=N)N)NC(=O)[C@H](CS)NC(=O)[C@H](CCCNC(=N)N)NC(=O)CNC(=O)CNC(=O)[C@H](CCCCN)NC(=O)[C@H](Cc1ccc(O)cc1)NC(=O)[C@H](CCCNC(=N)N)NC(=O)[C@H](CCCCN)NC(=O)[C@@H](NC(=O)[C@H](CC(C)C)NC(=O)[C@H](CS)NC(=O)[C@H](Cc1c[nH]cn1)NC(=O)[C@H](C)NC(=O)[C@H](C)NC(=O)[C@H](CS)NC(=O)[C@H](C)NC(=O)[C@H](CO)NC(=O)[C@H](Cc1c[nH]cn1)NC(=O)[C@H](CC(N)=O)NC(=O)[C@H](CC(C)C)NC(=O)[C@H](CO)NC(=O)CNC(=O)[C@H](Cc1c[nH]c2ccccc12)NC(=O)[C@@H]1CCCN1C(=O)[C@@H](NC(=O)[C@H](CO)NC(=O)[C@H](C)NC(=O)[C@H](CO)NC(=O)[C@H](CC(C)C)NC(=O)[C@H](CC(C)C)NC(=O)[C@H](CC(=O)O)NC(=O)[C@H](CS)NC(=O)[C@@H](NC(=O)[C@H](C)N)[C@@H](C)O)[C@@H](C)O)[C@@H](C)O)C(=O)N[C@@H](CS)C(=O)N[C@@H](CCCNC(=N)N)C(=O)N[C@@H](CS)C(=O)N[C@@H](CCCNC(=N)N)C(=O)N[C@@H](CCCNC(=N)N)C(N)=O
antifungal concentration (ATCC 90028): > 19 µg/mL
